Results gathered from unrelated publications.
Parts stem from different laboratories: compare values within a part only.

Block 1
Target: Centromere-binding protein 1, full length, N-terminal tag (CBF1, Saccharomyces cerevisiae, UniProt P17106, residues 1-351)
Sequence of UniProt P17106 (whole entry, looked up): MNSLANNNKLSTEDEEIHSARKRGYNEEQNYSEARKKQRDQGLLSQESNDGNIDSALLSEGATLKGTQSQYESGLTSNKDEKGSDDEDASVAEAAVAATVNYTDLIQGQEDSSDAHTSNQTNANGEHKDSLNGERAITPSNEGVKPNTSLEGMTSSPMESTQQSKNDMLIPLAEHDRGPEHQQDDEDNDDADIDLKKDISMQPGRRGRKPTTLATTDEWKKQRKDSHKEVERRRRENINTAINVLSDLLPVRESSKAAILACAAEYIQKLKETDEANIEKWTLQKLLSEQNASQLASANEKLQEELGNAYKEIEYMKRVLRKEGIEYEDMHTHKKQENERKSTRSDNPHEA
Technique: protein-binding microarray
Molecule type: double-stranded DNA, one strand shown
Matrix: in vitro
Tested at: 0.8 µM
Setting: whole 60-bp probe, no competitor
Reading: higher = stronger binding
Measurement: fluorescence intensity
All sequences stand within: … GTCTTGATTCGCTTGACGCTGCTG
GAAATGTGAAACTGATGTCTGATGCTGTTCTTTTAG: 506 a.u.
GAACATTTAGAGTTTCTCATCACCATCACCATATAG: 535 a.u.
CTACGGGTGCAAAACCGGGTGACGGGACACCGCTTC: 467 a.u.
GAACACATAGGTAATAAGGTGACAAGTAGCAAGTAG: 532 a.u.
CTAATATGCAAATATCACGTAGTTAAAAAACTATTC: 598 a.u.
GAAGCACAGATACGTCATCAGGTACGAACACGATAG: 605 a.u.

Block 2
Target: Protein C-ets-1 (ETS1, Homo sapiens, UniProt P14921, residues 1-441, full length assumed)
Sequence of UniProt P14921 (whole entry, looked up): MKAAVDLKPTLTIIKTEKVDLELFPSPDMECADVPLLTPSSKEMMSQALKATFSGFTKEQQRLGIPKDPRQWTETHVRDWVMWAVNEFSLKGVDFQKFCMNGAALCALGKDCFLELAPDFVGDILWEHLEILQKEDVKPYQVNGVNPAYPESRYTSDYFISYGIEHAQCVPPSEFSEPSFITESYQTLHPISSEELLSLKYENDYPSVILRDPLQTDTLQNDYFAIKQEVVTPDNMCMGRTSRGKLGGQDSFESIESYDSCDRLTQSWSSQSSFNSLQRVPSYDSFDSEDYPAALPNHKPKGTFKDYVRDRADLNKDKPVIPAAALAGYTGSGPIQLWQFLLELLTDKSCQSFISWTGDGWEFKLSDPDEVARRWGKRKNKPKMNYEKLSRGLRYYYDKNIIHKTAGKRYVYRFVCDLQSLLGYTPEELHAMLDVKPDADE
Technique: protein-binding microarray
Molecule type: double-stranded DNA, one strand shown
Matrix: in vitro
Tested at: not given
Setting: k-mer, scored over probes, only values ≥0.25
Reading: higher = stronger binding
Measurement: E-score
AGGAAATC: 0.437
AGTCGGAA: 0.318
CGACTTCC: 0.459
CGGAAAGA: 0.401
CGGTTTCC: 0.422
CCAACCGG: 0.279
CTGGAAAC: 0.296

Block 3
Target: Histone acetyltransferase KAT6A, winged helix 2, GST fusion (KAT6A, Homo sapiens, UniProt Q92794, residues 85-181)
Technique: protein binding microarray
Molecule type: double-stranded DNA, one strand shown
Matrix: in vitro
Tested at: not given
Setting: 8-mer, flanks averaged, mean of 2 arrays, mostly near background
Baseline: not given
Reading: higher = stronger binding
Measurement: E-score
Residues (chain): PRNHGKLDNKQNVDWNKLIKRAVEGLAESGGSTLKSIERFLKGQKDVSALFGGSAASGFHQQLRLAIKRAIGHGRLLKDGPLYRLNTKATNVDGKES
CATTGCAC: 0.108
ACGTCGTC: -0.0394
GCGACCAA: 0.11
CACTAACA: -0.136
CATAAGAC: -0.22
CGTGGCTA: 0.0112
TCGCTACA: -0.291

Mixed results
PhoQ, residues 284 288 289 292 302 303 NSMLDC
fold induction (PhoP, residues 12 14 15 18 19 GQALL (Escherichia coli, UniProt P23836); Sort-seq, refers to: YFP reporter; E. coli; PhoQ-PhoP variant library, with: 10 µM Mg2+; baseline: high Mg2+ state, higher = stronger signaling): 9.53

A few entries again (block 2):
CCAACCGG: 0.279
CGGAAAGA: 0.401
